Results pooled from the literature.
Each numbered part is a random draw from the data of one study; scales do not carry over between parts. Positions count from the first letter of the parent shown.
Chain of UniProt P38919 (whole entry, looked up): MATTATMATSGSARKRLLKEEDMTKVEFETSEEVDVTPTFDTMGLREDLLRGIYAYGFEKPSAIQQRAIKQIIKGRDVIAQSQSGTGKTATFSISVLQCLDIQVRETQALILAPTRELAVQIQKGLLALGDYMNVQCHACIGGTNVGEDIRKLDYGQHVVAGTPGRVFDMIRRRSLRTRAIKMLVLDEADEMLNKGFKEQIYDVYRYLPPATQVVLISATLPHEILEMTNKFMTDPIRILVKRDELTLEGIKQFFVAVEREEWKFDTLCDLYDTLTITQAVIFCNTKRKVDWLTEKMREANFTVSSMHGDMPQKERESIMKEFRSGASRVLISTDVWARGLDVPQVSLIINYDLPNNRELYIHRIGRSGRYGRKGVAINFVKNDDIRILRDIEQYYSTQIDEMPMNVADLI

Series 1
Target: UDP-N-acetylglucosamine--peptide N-acetylglucosaminyltransferase 110 kDa subunit (OGT, Homo sapiens, UniProt O15294)
Observed: binding
Technique: phage display NGS
Molecule type: peptide
Setting: panning round 2
Baseline: input library
Target sequence (O15294 1-1046): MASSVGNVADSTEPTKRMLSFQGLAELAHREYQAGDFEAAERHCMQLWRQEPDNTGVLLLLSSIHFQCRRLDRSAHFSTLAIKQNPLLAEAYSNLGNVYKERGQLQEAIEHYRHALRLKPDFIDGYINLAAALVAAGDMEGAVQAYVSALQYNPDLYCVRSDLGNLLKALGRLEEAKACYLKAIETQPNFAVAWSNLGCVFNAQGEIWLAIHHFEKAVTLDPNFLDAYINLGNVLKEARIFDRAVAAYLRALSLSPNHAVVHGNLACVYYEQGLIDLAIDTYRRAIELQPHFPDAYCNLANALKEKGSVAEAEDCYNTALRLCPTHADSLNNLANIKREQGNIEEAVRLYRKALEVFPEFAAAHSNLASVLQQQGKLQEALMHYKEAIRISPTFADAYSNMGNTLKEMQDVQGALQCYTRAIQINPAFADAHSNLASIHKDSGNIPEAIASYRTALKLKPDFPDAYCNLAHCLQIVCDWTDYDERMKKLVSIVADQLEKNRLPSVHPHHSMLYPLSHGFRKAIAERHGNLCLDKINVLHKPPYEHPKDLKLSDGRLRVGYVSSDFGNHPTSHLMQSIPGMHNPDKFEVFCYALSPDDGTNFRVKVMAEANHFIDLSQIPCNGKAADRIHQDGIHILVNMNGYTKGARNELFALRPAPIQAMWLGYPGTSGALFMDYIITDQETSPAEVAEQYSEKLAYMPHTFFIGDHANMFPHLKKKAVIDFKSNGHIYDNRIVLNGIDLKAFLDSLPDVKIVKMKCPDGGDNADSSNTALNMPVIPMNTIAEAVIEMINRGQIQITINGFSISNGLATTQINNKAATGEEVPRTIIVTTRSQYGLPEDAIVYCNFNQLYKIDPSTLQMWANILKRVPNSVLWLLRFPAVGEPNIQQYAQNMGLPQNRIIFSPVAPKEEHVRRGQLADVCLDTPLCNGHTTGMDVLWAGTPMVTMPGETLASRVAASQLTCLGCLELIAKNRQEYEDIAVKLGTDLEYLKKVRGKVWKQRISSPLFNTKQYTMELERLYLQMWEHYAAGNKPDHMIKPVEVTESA
| Molecule | minimum log2 enrichment ratio |
| --- | --- |
| QDLMPYYPIQYYQER | 4 |
| DNVYPMYQMTYKAID | 3.13 |
| HTPWRPQRNEHHRYV | 2.63 |
| YDFLPMYQIRFYDYN | 2.34 |
| INPPWHHVHRHHSWA | 2.27 |
| HQEHKHEGHWAIFD | 2.25 |
| VMELQFLPHYQIEAF | 3.31 |
| QAQFMPVYQMQSMAR | 2.07 |
| HTEAHVNRHRHEHQI | 2.48 |
| RFMPVYQMNVPEIDV | 3.33 |
| DFMGLEFMPVYQIRI | 3.88 |
| EQHFPPAYLITYKSR | 4.01 |
| SQHVFINYHNHTHT | 2.28 |
| SSWPWTMHMHQPSYH | 2.33 |
| DVYLHKHQRDHAYVA | 3.49 |
| NLYRPQYQINFFDTI | 6.42 |
| QSDFLPKYQLDLFSY | 3.7 |

Series 2
Target: Muscarinic acetylcholine receptor M1 (CHRM1, Homo sapiens, UniProt P11229)
Chain of UniProt P11229 (whole entry, looked up): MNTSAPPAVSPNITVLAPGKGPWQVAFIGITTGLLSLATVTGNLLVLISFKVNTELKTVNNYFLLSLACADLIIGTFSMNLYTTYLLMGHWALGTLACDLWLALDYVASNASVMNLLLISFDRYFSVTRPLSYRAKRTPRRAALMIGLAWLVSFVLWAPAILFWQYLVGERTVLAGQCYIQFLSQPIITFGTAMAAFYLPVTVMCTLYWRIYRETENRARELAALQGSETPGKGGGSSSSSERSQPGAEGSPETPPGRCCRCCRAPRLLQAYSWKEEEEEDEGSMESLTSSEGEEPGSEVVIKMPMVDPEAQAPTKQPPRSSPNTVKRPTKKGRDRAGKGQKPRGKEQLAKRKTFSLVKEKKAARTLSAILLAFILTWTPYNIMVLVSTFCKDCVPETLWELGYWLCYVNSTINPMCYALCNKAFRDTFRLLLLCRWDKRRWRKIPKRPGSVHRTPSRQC
Observed: binding
Technique: radioligand binding
Tested at: 10 µM
| SMILES | inhibition [%] |
| --- | --- |
| Nc1c(C(=O)NCc2ccc(C(=O)NCCCC3CCCCC3)cc2)cnn1-c1ccccc1 | 31.1 |
| COCc1nc2cnc3cc(-c4c(C)noc4C)c(OC[C@H]4CCNC4)cc3c2n1[C@H](C)c1ccccc1 | -1.37 |
| Cc1cc(C)c(-n2ccn3nc(-c4cccnc4)cc23)cc1NC(=O)c1cc(C#N)cc(S(F)(F)(F)(F)F)c1 | 24.8 |

Series 3
Target: Sox-I, HMG box (Salpingoeca helianthica)
Technique: Spec-seq
Molecule type: double-stranded DNA, one strand shown
Matrix: in vitro
Tested at: not given
Setting: whole probe, mean of replicates
Baseline: not given
Reading: lower = stronger binding
All sequences stand within: GAGTCGTCTCGTCAGCAC … CCGTAGAGCACTCAGGTC
Target sequence (chain): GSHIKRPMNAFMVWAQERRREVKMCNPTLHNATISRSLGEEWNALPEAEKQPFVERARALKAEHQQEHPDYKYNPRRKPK
| Strand | relative binding energy [ln ratio] |
| --- | --- |
| GTTTGTT | -0.898 |
| AACCGTT | -0.328 |
| CATAGGG | -0.0376 |
| CTCGGTT | 0.894 |
| CCGCGTT | 0.846 |
| CGCCGTT | 0.708 |
| GACGGTT | 0.844 |
| CATCACA | 0.587 |

Series 4
Target: CRIPT, C-terminal peptide
Technique: DHFR complementation, deep sequencing
Matrix: yeast
Setting: single substitutions, model-inferred values
Baseline: wild type
Reading: higher = weaker binding
Starting sequence: ERBIN, PDZ domain 1 (human); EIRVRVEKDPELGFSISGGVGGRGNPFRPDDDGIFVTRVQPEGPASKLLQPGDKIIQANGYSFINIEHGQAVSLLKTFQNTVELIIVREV; partner TKNYKQTSV
| Change | binding free energy change |
| --- | --- |
| N65L | 0.157 kcal/mol |
| N65Q | 0.0466 kcal/mol |
| S73T | -0.051 kcal/mol |
| Q40F | 0.237 kcal/mol |
| S46M | 0.0464 kcal/mol |
| A45M | 1.6 kcal/mol |
| R28N | -0.0824 kcal/mol |
| D31W | 0.985 kcal/mol |

Mixed results
| Structure (SMILES) | target | assay | conditions | quantity | result |
| --- | --- | --- | --- | --- | --- |
| COc1ccc([C@@]23Oc4cc(OC)cc(OC)c4[C@]2(O)C(=O)C[C@H]3c2ccccc2)cc1 | Eukaryotic initiation factor 4A-III (Homo sapiens, UniProt P38919) | RNA clamping, fluorescence polarization | concentration not given, added: FAM-labelled poly r(AG)8 RNA | fluorescence polarization change | 31.1 mP |
